# Assay results pooled from the literature.
# Compare with care: the assays were run in different laboratories. “And” joins repeats or separate records; there may be more than shown. ± marks the error that the study gave.
# TPI1 Y208F: TPI1 (Saccharomyces cerevisiae, UniProt P00942, Y208F)
SMILES,target,assay,test system,setting,scale,endpoint,value
C[C@H]1CN(c2n[nH]c3nc(N[C@H]4CC[C@H](NS(=O)(=O)CCC(F)(F)F)CC4)ncc23)CCO1,"ERBB4 (Homo sapiens, UniProt Q15303)","inhibitor, Kinobeads competition profiling",,0.032 µM,baseline: vehicle,relative abundance,0.94
Nc1nc2c(ncn2[C@@H]2O[C@@H]3COP(=O)(O)O[C@@H]4[C@H](O)[C@@H](COP(=O)(O)O[C@H]3[C@H]2O)O[C@H]4n2cnc3c(N)ncnc32)c(=O)[nH]1,"CBASS effector Cap5 (Pseudomonas syringae, UniProt A0A2P0QGK5)","plasmid DNA cleavage, agarose gel",,"20 min, with: plasmid DNA 50 nM",,lowest concentration for DNA cleavage,1 nM
Cc1ncsc1-c1ccc(CNC(=O)[C@@H]2C[C@@H](O)CN2C(=O)[C@@H](NC(=O)COCCOCCOCCNC(=O)C[C@@H]2N=C(c3ccc(Cl)cc3)c3c(sc(C)c3C)-n3c(C)nnc32)C(C)(C)C)cc1,VHL-ElonginB-ElonginC complex human,"ternary complex formation, fluorescence polarization",,with: PBRM1 bromodomain 5,,cooperativity factor,3.3
Nc1ncc(-c2nc(N3CCOCC3)nc(N3CCOCC3)n2)c(C(F)F)n1,"EGFR (Homo sapiens, UniProt P00533, G719S)",KINOMEscan,,10 µM,,remaining binding,75%
[2H]c1c([2H])c([C@]2([2H])CCCN2C(=O)C(C)(C)Oc2ccc3cn[nH]c3c2)c([2H])c([2H])c1C([2H])([2H])[2H],"CSNK1G2 (Homo sapiens, UniProt P78368)",KINOMEscan,,1 µM,baseline: DMSO control,remaining binding,64%
O=C(Nc1cnccc1Cl)N1CCN(Cc2ccc3c(c2)OC(F)(F)O3)CC1,"GRM2 (Homo sapiens, UniProt Q14416)",radioligand binding,,"10 µM, with: [3H]LY341495",,inhibition of binding,9%
Oc1ccc(/C=C/c2cc(O)cc(O)c2)cc1,"O-methyltransferase (Sorghum bicolor, UniProt A0A1B6PFV1, W279A)",isothermal titration calorimetry,,with: SFG,,-T∆S,0.388 kcal/mol
CN(C(=O)n1cnc(-c2ccc[n+]([O-])c2)c1)C1CCCCC1,"Monoacylglycerol lipase ABHD6 (Abhd6, Rattus norvegicus, UniProt Q5XI64)","enzyme activity, ABPP","rat, brain","oral, 100 mg/kg/day, 1 days",baseline: vehicle,fold change,-19.3
O=C(O)Cc1c[nH]cn1,"SLC6A6 (Homo sapiens, UniProt P31641, Y138A)","binding, microscale thermophoresis",,"7.81 µM, room temperature, with: 50 nM labelled protein",higher = more binding,normalised MST signal,0.0586
O=C(Nc1nncs1)C(F)(F)Cl,"MAPK8 (Homo sapiens, UniProt P45983)","binding, isothermal titration calorimetry",,,,ligand efficiency,0.44
Nc1ncnc2c1ncn2[C@@H]1O[C@H](COP(=O)(O)O)[C@@H](O)[C@H]1O,"Thermonuclease (nuc, Staphylococcus aureus, UniProt P00644)",ligand-coupled folding kinetics,,"pH 7.0, 22 °C, 2.7 M urea",,ligand concentration at rate minimum,~1 mM
COc1ccc(N2C(=O)N(c3c(C)cccc3Cl)Cc3cnc(Nc4ccc(C5CCN(C)CC5)cc4OC)nc32)nc1,"CAMK1D (Homo sapiens, UniProt Q8IU85)",kinase activity,,0.5 µM,,inhibition,11%
COc1cc(N)c(Cl)cc1C(=O)NC1CN2CCC1CC2 (stereo not shown),"G-protein coupled receptor 171 (GPR171, Homo sapiens, UniProt O14626)","β-arrestin recruitment, TANGO luminescence, refers to: GPR171",,concentration not given,baseline: basal luminescence,log2 fold change,0.476
NC(=O)c1cc[n+](CC2=C(C(=O)O)N3C(=O)[C@@H](NC(=O)[C@@H](c4ccccc4)S(=O)(=O)[O-])[C@H]3SC2)cc1,"Penicillin-binding protein 2X (Streptococcus pneumoniae R6, UniProt P59676)",inhibitor,Streptococcus pneumoniae,,,kinact/KI,1000 ± 6 M⁻¹ s⁻¹
COc1cc(Nc2ncc(F)c(Nc3ccc4c(n3)NC(=O)C(C)(C)O4)n2)cc(OC)c1OC,"CAMKK2 (Homo sapiens, UniProt Q96RR4)",KINOMEscan,,10 µM,,inhibition,9%
CN(C(=O)n1cnc(-c2ccc[n+]([O-])c2)c1)C1CCCCC1,"GABAB1B receptor, human",binding,,"10 µM, with: [3H]CGP-54626",,inhibition,14%
CC(C)C[C@@H]1NC(=O)[C@H](C(C)C)NC(=O)CNC(=O)[C@H](CC(N)=O)NC(=O)[C@@H]2CCCN2C(=O)[C@H](Cc2ccc(O)cc2)NC(=O)[C@H](CCCNC(=N)N)NC(=O)[C@H](Cc2ccccc2)NC(=O)[C@@H](NC(=O)[C@H](CCCCN)NC(=O)[C@@H]2CCCN2C(=O)[C@H](CO)NC(=O)[C@H](C)NC(=O)[C@@H](N)Cc2ccc(O)cc2)CSSC[C@@H](C(=O)N[C@H](C(N)=O)[C@@H](C)O)NC(=O)[C@H](C)NC1=O,"Alpha-2-HS-glycoprotein, asialo (AHSG, Bos taurus, UniProt P12763)",isothermal titration calorimetry,,"concentration not given, pH 7.0, 25 °C, with: asialofetuin",,binding stoichiometry,0.129
CCN1CCN(C(=O)N[C@@H](C(=O)N[C@@H]2C(=O)N3[C@@H]2SC(C)(C)[C@@H]3C(=O)O)c2ccccc2)C(=O)C1=O,"Penicillin-binding protein 2a (pbp2a, Streptococcus pneumoniae, UniProt Q8DNB6)",inhibitor,,,,kinact/KI,880 ± 75 M⁻¹ s⁻¹
CN1CCN(c2cc(-c3ccncc3)c(-c3ccc4ccccc4c3)nn2)CC1,"CCR10 (Homo sapiens, UniProt P46092)","agonist, FLIPR",,12.5 µM,,activation,-2.7%
O=c1oc(-c2cccc(F)c2)ns1,"PSMB6 (Homo sapiens, UniProt P28072)","enzyme inactivation, inhibitor",human PA28-activated proteasome,,,kobs/[I],0.69 M⁻¹ s⁻¹
O=c1c2ccccc2oc2cc(OCCCCc3ccccc3)ccc12,"ache (Electrophorus electricus, UniProt O42275)","enzyme activity, inhibitor, Lineweaver-Burk plot",,2.91 µM,higher = faster reaction,Vmax,0.0038 a.u.
NCCc1c[nH]c2ccc(O)cc12,"arylalkylamine N-acetyltransferase (Camelus dromedarius, UniProt A0A5N4D3Q0)","enzyme activity, colorimetric DTNB",,with: acetyl-CoA,,Km,< 10 µM
CSc1scc2c1-c1nc(SCC(=O)C(C)(C)C)ncc1CC2,"Dual specificity protein phosphatase 10, catalytic domain (Homo sapiens, UniProt Q9Y6W6)",X-ray co-crystal structure,,concentration not given,,active site volume,51 ± 2.8 Å³
CNC(C)Cc1ccc2nsnc2c1 (stereo not shown),"HTR2C (Homo sapiens, UniProt P28335)",agonist,,,baseline: 5-HT,Emax,84.3 ± 7.2%
Nc1nc2c(ncn2[C@@H]2O[C@@H]3COP(=O)(O)O[C@H]4[C@@H](O)[C@H](n5cnc6c(=O)[nH]c(N)nc65)O[C@@H]4COP(=O)(O)O[C@H]3[C@H]2O)c(=O)[nH]1,"Cell cycle histidine kinase CckA, G318A; cytoplasmic region (Caulobacter vibrioides, UniProt Q9X688, G318A)","binding, ITC",,"12 °C, with: ADP 5 mM",,-TΔS,-6.7 kcal/mol
O=C1c2ccccc2C(=O)C1C(=O)C(c1ccccc1)c1ccccc1,"NR1H3 (Homo sapiens, UniProt Q13133)",,,concentration not given,,activity,inactive
C=C(CN(C(=O)c1c(C(F)F)nn(C)c1F)C1CC1)c1ccc(Cl)cc1Cl,"SDHD/SDHC/SDHB (Sus scrofa, UniProt A5GZW8+D0VWV4+Q007T0)","enzyme activity, inhibitor, DCIP reduction",pig,"0.1 µM, with: DCIP 10 µM",,reaction velocity,0.00368 µM/s and 0.00369 µM/s and 0.00361 µM/s
Cn1nccc1[C@]1(CNC(=O)c2ccc(F)c(F)c2-c2ccc(C(F)(F)F)cc2)NC(=O)NC1=O,"MALT1 (Homo sapiens, UniProt Q9UDY8)",inhibitor,,,baseline: MALT1 over target,selectivity ratio,> 16700
O=C(O)COP(=O)(O)O,TPI1 Y208F,"enzyme activity, competitive inhibitor, GPDH/NADH-coupled",,"pH 4.9, 25 °C, ionic strength 0.1 NaCl, with: glyceraldehyde 3-phosphate substrate",baseline: mutant over wild type,Ki ratio,9420
CC[C@H](C)[C@@H]1NC(=O)[C@H](Cc2c[nH]c3ccccc23)NC(=O)[C@H](Cc2ccc(O)cc2)NC(=O)CSC[C@@H](C(N)=O)NC(=O)[C@H]([C@@H](C)O)NC(=O)[C@H](CO)NC(=O)[C@H](C(C)C)NC(=O)[C@H](Cc2ccc(O)cc2)NC(=O)[C@H](CCCNC(=N)N)NC(=O)[C@H](Cc2ccc(O)cc2)NC(=O)[C@H]([C@@H](C)O)NC(=O)[C@H]([C@@H](C)O)NC(=O)[C@H](Cc2c[nH]c3ccccc23)NC(=O)[C@H](CO)NC(=O)[C@H](CC(N)=O)NC(=O)[C@H](CO)NC1=O,"Vacuolar protein sorting-associated protein 26A/Vacuolar protein sorting-associated protein 35, Vps35 residues 1–224 (Homo sapiens, UniProt O75436+Q96QK1)",ITC,,25 °C,,-TΔS,-2.1 ± 1.7 kcal/mol
O=C(O)c1ccc(CN2C(=O)CN(C(=O)c3ccco3)c3cc(-c4ccccc4)c(Oc4ccc(C(=O)O)cc4)cc32)cc1,"GUCY1B1, with alpha-1 subunit (Homo sapiens, UniProt Q02153, H105A)",,,concentration not given,,soluble guanylate cyclase activity,542 ± 55.2 nmol cGMP/min/mg
O=C(c1ccc(Cl)cc1)N1CCN2C(=O)N(OC(=O)N3CCOc4ccccc43)C(=O)C2C1 (stereo not shown),"Platelet-activating factor acetylhydrolase IB subunit alpha1 (Homo sapiens, UniProt Q15102)",MS-based ABPP,SW-620 conditioned medium,"10 µM, 1 h, 37 °C","baseline: compound over DMSO, lower = more inhibition",mean protein ratio,0.83
O=C[C@H](O)COP(=O)(O)O,TPI1 Y208F,"substrate, GPDH/NADH-coupled",,"pH 4.9, 25 °C",,kcat,~11 s⁻¹
CC[C@@H](C)[C@@H](NC(=O)[C@@H](Cc1ccc(O)cc1)NC(=O)[C@H]1CCCN1C(=O)[C@@H](CCCNC(=N)N)NC(=O)[C@H](N)Cc1c[nH]cn1)C(=O)N[C@H](C)C(=O)N[C@H](Cc1c[nH]cn1)C(=O)N[C@H](CCCNC(=N)N)C(=O)N[C@H](CCCCNC(=O)c1cccc(S(=O)(=O)F)c1)C(=O)N[C@H](Cc1ccc(O)cc1)C(=O)N[C@H](CO)C(=O)N[C@H](Cc1ccccc1)C(N)=O,"Transferrin receptor protein 1 (Tfrc, Mus musculus, UniProt Q62351)",flow cytometry,B16,"6 h, unit not given",baseline: 0 h,surface expression,0.587 and 0.582
COc1ccc(Nc2nn3c(-c4ccccc4)ccnc3c2C(=O)Nc2ccccc2)cc1,α-glucosidase,"SDS-PAGE densitometry, refers to: 45 kDa band",,1 mg/mL,"baseline: untreated enzyme, lower = more denaturation",band quantity,0.88 a.u.
c1cc(N2CCNCC2)c2cc[nH]c2c1,"CHRM2 (Homo sapiens, UniProt P08172)","ERK1/2 phosphorylation, agonist",CHO cells,,,Emax,< 10%
CCCCCCCCCC(=O)CC(=O)Nc1ccccc1,"qscR (Pseudomonas aeruginosa, UniProt G3XD77)","reporter gene, agonist",,100 µM,,activation,22%

# For quick reference, copied from above:
SMILES,target,assay,test system,setting,scale,endpoint,value
CC[C@H](C)[C@@H]1NC(=O)[C@H](Cc2c[nH]c3ccccc23)NC(=O)[C@H](Cc2ccc(O)cc2)NC(=O)CSC[C@@H](C(N)=O)NC(=O)[C@H]([C@@H](C)O)NC(=O)[C@H](CO)NC(=O)[C@H](C(C)C)NC(=O)[C@H](Cc2ccc(O)cc2)NC(=O)[C@H](CCCNC(=N)N)NC(=O)[C@H](Cc2ccc(O)cc2)NC(=O)[C@H]([C@@H](C)O)NC(=O)[C@H]([C@@H](C)O)NC(=O)[C@H](Cc2c[nH]c3ccccc23)NC(=O)[C@H](CO)NC(=O)[C@H](CC(N)=O)NC(=O)[C@H](CO)NC1=O,"Vacuolar protein sorting-associated protein 26A/Vacuolar protein sorting-associated protein 35, Vps35 residues 1–224 (Homo sapiens, UniProt O75436+Q96QK1)",ITC,,25 °C,,-TΔS,-2.1 ± 1.7 kcal/mol
COc1ccc(Nc2nn3c(-c4ccccc4)ccnc3c2C(=O)Nc2ccccc2)cc1,α-glucosidase,"SDS-PAGE densitometry, refers to: 45 kDa band",,1 mg/mL,"baseline: untreated enzyme, lower = more denaturation",band quantity,0.88 a.u.
O=c1oc(-c2cccc(F)c2)ns1,"PSMB6 (Homo sapiens, UniProt P28072)","enzyme inactivation, inhibitor",human PA28-activated proteasome,,,kobs/[I],0.69 M⁻¹ s⁻¹
